Assay results collected from several papers.
A part holds a random share of what one study measured. Changes are numbered by the printed parent chain.

Sample 1
Target: CCNF, cyclin fold, Cln2 fusion (human)
Technique: yeast growth competition, sequencing
Sample: yeast
Setting: strong parent motif
Relative to: not given
Direction: higher = stronger binding
Starting sequence: viral docking peptide; TSVRRALFTGGSD
| Substitution | normalised enrichment score |
| --- | --- |
| T1A | 9.03 |
| T9Y | 8.83 |
| G10C | 8.16 |
| S12C | 8.4 |
| S2R | 8.71 |
| T9P | 8.78 |
| R5M | 0.899 |
| G10A | 8.39 |
| S2E | 7.22 |
| R4W | 2.88 |
| A6P | 6.23 |
| R5H | 1.35 |
| T9R | 8.66 |
| S2I | 7.31 |
| S2M | 7.95 |
| G11D | 7.83 |
| R4F | 4.3 |
| V3E | 1.59 |
| L7A | 0.631 |
| T9C | 8.23 |
| R5F | 0.489 |
| V3P | 5.12 |
| A6W | 1.98 |
| G10W | 8.71 |
| G10T | 7.94 |

Sample 2
Target: UDP-N-acetylglucosamine--peptide N-acetylglucosaminyltransferase 110 kDa subunit (OGT, Homo sapiens, UniProt O15294)
Sequence of UniProt O15294 (whole entry, looked up): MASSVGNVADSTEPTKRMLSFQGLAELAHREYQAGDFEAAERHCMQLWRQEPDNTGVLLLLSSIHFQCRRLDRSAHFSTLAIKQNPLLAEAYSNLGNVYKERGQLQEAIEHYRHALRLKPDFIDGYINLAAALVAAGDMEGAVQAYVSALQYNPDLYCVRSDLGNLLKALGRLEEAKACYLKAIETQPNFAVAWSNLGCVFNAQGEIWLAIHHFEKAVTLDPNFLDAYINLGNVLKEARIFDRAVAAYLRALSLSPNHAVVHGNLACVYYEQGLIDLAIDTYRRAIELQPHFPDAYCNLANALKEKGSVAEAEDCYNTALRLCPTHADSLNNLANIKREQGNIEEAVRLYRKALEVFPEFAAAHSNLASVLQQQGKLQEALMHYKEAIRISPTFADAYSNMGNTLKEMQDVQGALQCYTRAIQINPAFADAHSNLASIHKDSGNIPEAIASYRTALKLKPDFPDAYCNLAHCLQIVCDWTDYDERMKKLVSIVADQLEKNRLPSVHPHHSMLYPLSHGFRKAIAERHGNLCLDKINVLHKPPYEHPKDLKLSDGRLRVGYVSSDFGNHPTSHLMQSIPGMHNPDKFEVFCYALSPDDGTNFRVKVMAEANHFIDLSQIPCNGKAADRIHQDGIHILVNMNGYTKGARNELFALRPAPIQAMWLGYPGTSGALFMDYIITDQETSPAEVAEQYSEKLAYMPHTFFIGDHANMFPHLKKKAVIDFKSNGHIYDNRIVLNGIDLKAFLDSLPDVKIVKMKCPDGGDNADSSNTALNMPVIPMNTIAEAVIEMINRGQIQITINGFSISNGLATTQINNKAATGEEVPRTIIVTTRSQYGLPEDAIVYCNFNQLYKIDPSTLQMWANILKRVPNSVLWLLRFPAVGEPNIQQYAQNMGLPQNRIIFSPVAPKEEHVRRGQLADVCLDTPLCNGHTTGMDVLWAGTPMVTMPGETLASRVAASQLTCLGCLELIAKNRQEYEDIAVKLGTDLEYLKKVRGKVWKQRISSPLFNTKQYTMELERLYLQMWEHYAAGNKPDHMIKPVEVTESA
Read-out: binding
Technique: phage display NGS
Molecule type: peptide
Relative to: input library
| Molecule | minimum log2 enrichment ratio |
| --- | --- |
| SMNLRHHDHNVHPRV | 2.69 |
| GPRNLIPKYQIQYTY | 5.44 |
| HSKVHSHDVVTIYHH | 1.9 |
| QEGTMPIYQIIMKYD | 1.75 |
| QRVQHSHHYMHQIAE | 3.34 |
| SWAPWHIASQRHQDF | 1.76 |
| TAPTHHGHHYASDHH | 2.42 |
| YRTAHSHDHASHHNH | 3.53 |
| RADDYKPMYTIRFMR | 3.22 |

Sample 3
Target: inorganic phosphate, free oxyanion
Technique: microfluidic competitive inhibition
Sample: in vitro, cell-free expressed
Concentration: not given
Setting: derived from inhibition constants, unchanged parent 615000 nM
Direction: lower = stronger binding
Starting sequence: PafA, mature enzyme, eGFP fusion (Elizabethkingia meningoseptica, UniProt Q9KJX5); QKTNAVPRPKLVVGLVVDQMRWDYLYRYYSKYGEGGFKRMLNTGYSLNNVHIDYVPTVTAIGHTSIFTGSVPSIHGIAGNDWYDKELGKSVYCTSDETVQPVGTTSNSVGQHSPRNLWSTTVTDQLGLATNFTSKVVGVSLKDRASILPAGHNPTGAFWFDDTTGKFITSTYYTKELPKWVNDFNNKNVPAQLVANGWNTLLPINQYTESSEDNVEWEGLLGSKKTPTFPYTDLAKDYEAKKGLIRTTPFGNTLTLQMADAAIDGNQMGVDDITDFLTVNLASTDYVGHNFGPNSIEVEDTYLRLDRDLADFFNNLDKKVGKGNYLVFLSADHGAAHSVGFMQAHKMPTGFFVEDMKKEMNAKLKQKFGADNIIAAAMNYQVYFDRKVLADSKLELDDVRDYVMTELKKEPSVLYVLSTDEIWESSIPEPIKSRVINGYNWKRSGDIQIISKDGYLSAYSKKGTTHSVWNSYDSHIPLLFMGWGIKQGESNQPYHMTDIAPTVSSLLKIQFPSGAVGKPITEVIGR
| Substitution | phosphate dissociation constant [µM] |
| --- | --- |
| D397G | 636 |
| I520G | 354 |
| N49G | 453 |
| S490V | 453 |
| Y439V | 599 |
| Q19G | 1320 |
| T255G | 616 |
| P72G | 361 |
| T174V | 637 |
| M360G | 546 |
| T200V | 636 |
| V516A | 530 |

Mixed results
Technique: cross-linking MS
| Molecule | partner | test system | setting | measurement | value |
| --- | --- | --- | --- | --- | --- |
| MYL6 (Homo sapiens, UniProt P60660) | MYO18A (Homo sapiens, UniProt Q92614) | cell fractions | added: DMTMM | cross-linked residues | E14 to K1212 |
| CYCS (Homo sapiens, UniProt P99999) | PHB2 (Homo sapiens, UniProt Q99623) |  | hits only | interaction screen | cross-linked |
| P4HA2 (Homo sapiens, UniProt O15460) | P4HB (Homo sapiens, UniProt P07237) | cell fractions | added: DSSO | cross-linked residues | K300 to K409 |
| LMNA (Homo sapiens, UniProt P02545) | LMNB2 (Homo sapiens, UniProt Q03252) |  | hits only | interaction screen | cross-linked |

Excerpt of the above (mixed results):
| Molecule | partner | test system | setting | measurement | value |
| --- | --- | --- | --- | --- | --- |
| MYL6 (Homo sapiens, UniProt P60660) | MYO18A (Homo sapiens, UniProt Q92614) | cell fractions | added: DMTMM | cross-linked residues | E14 to K1212 |
| CYCS (Homo sapiens, UniProt P99999) | PHB2 (Homo sapiens, UniProt Q99623) |  | hits only | interaction screen | cross-linked |
| P4HA2 (Homo sapiens, UniProt O15460) | P4HB (Homo sapiens, UniProt P07237) | cell fractions | added: DSSO | cross-linked residues | K300 to K409 |
| LMNA (Homo sapiens, UniProt P02545) | LMNB2 (Homo sapiens, UniProt Q03252) |  | hits only | interaction screen | cross-linked |
